# Results of several laboratories.
# “And” joins repeats or separate records; there may be more than shown. ± gives the spread as reported.
SMILES,test,system,conditions,half-life
C#CCn1c(C)c(C(=O)C(=O)NC(C)(C)C#C)c(C)c1C(=O)Nc1ccc(F)c(F)c1,,mouse liver microsomes,"1 µM, with: ritonavir 0.3 µM",< 0.0833 h
O=S(=O)([O-])[O-].[O]=[V+2],refers to: total vanadium,"human, serum","oral, 50 mg V/day as VOSO4",118 h and 173 h and 71 h and 101 h
O=C(C[18F])NCCCCCC(=O)Nc1ccccc1,,"rhesus macaque, blood plasma","intravenous, 6.07 mCi, slow phase",~0.0917 h
CC(C)C[C@H](NC(=O)[C@H](CCC(=O)O)NC(=O)[C@H](CCC(=O)O)NC(=O)[C@H](CC(=O)O)NC(=O)[C@H](CCC(=O)O)NC(=O)[C@H](CCC(=O)O)NC(=O)[C@H](CCC(=O)O)NC(=O)[C@@H](N)CC(=O)O)C(=O)O,,mouse brain homogenate,"1 µM, room temperature",> 2 h
CC[C@H](C)[C@H](NC(=O)[C@H](CCCNC(=N)N)NC(=O)[C@H](CC(C)C)NC(=O)[C@@H](N)Cc1ccccc1)C(=O)N[C@@H](CCCNC(=N)N)C(=O)N1CCC[C@H]1C(=O)N[C@@H](CCCCN)C(=O)O,,rat plasma,37 °C,0.7 h
O=C(NC1CCCCC1)Oc1ccc(F)c(-c2ccccc2)c1,,10 mM borate buffer,"pH 9.0, 37 °C, chemical stability",0.617 ± 0.05 h
O=c1ccc2ccccc2o1,metabolic stability,human cryopreserved hepatocytes,,0.0833 to 0.333 h
O=c1[nH]c(Cc2ccccn2)nc2c1cnn2C1CCOCC1,,"healthy men, extensive metabolizers, plasma","oral, 100 mg single dose, tablet, geometric mean",1.85 h
Cc1ncc2n1-c1ccc(Cl)cc1C(c1ccccc1F)=NC2,,"healthy male, plasma","oral, 7.5 mg, alone, geometric mean, day 1",4.2 h
CC[C@H](C)[C@@H]1NC(=O)[C@@H]2CSSC[C@H](NC(=O)[C@H](Cc3ccccc3)NC(=O)[C@@H](NC(=O)[C@@H](CO)NC(=O)[C@@H](Cc3ccccc3)NC(=O)[C@@H](CC(C)C)NC(=O)[C@@H]3CCCN3C(=O)[C@@H](CC(C)C)NC(=O)[C@@H](Cc3ccccc3)NC(=O)[C@@H](CCC(=O)O)NC(=O)[C@@H](C)NC(=O)[C@@H](Cc3ccccc3)NC(=O)[C@H](N)C(C)C)CSSC[C@@H](C(=O)N[C@@H](CC(C)C)C(=O)N[C@@H](CC(N)=O)C(N)=O)NC1=O)C(=O)N[C@@H]([C@@H](C)O)C(=O)N[C@@H](CCCNC(=N)N)C(=O)N[C@@H](CCSC)C(=O)N[C@@H](CO)C(=O)N1CCC[C@H]1C(=O)N1CCC[C@H]1C(=O)N[C@@H](CCC(N)=O)C(=O)N2,RP-HPLC,"human plasma, 20%","pH 7.4, 37 °C",≤ 120 h
C[C@H](NC(=O)CNC(=O)[C@H](Cc1c[nH]c2ccccc12)NC(=O)CNC(=O)[C@H](C)NC(=O)[C@H](CO)NC(=O)[C@H](CCCNC(=N)N)NC(=O)[C@H](CO)NC(=O)[C@H](CO)NC(=O)CN)C(=O)N[C@@H](CO)C(=O)N[C@@H](CCCNC(=N)N)C(=O)N[C@@H](CO)C(=O)N[C@@H](CO)C(=O)NCC(N)=O,RP-HPLC and LC-MS,human serum,"50% serum, 37 °C",< 0.5 h
CC[C@H](C)[C@H](NC(=O)CN)C(=O)NCC(=O)N[C@@H](C)C(=O)N[C@H](C(=O)N[C@@H](CC(C)C)C(=O)N[C@@H](CCCCN)C(=O)N[C@H](C(=O)N[C@@H](CC(C)C)C(=O)N[C@H](C(=O)N[C@H](C(=O)NCC(=O)N[C@@H](CC(C)C)C(=O)N1CCC[C@H]1C(=O)N[C@@H](C)C(=O)N[C@@H](CC(C)C)C(=O)N[C@H](C(=O)N[C@@H](CO)C(=O)N[C@@H](Cc1c[nH]c2ccccc12)C(=O)N[C@H](C(=O)N[C@@H](CCCCN)C(=O)N[C@@H](CCCNC(=N)N)C(=O)N[C@@H](CCCCN)C(=O)N[C@@H](CCCNC(=N)N)C(=O)N[C@@H](CCC(N)=O)C(=O)N[C@@H](CCC(N)=O)C(N)=O)[C@@H](C)CC)[C@@H](C)CC)[C@@H](C)O)[C@@H](C)O)C(C)C)C(C)C,HPLC-MS,human serum,37 °C,8 h
N=C(N)NCCC[C@@H](NC(=O)[C@@H](N)Cc1ccccc1)C(=O)N[C@@H](Cc1ccccc1)C(=O)N[C@@H](CCCCN)C(N)=O,,"early Huntington's disease patients, plasma","subcutaneous, 5 mg, day 7",3.13 h
CC[C@H](C)[C@H](N)C(=O)N[C@@H](CC(C)C)C(=O)N[C@@H](CCCNC(=N)N)C(=O)N[C@@H](Cc1c[nH]c2ccccc12)C(=O)N[C@@H](CO)C(=O)N[C@@H](CCCNC(=N)N)C(=O)N[C@@H](CCCCN)C(=O)N[C@@H](CC(C)C)C(=O)N1CCC[C@H]1C(=O)N[C@@H](CS)C(=O)N[C@H](C(=O)N[C@@H](CO)C(=O)O)C(C)C,12G5 antibody competition,human plasma,"20 µM, 37 °C, 100% plasma",~0.1 h
CC12C(=O)C(C)(C(c3ccccc3)=C1c1ccccc1)C1(Br)C(=O)N(CCNCCN)C(=O)C21.O=C(O)C(F)(F)F.O=C(O)C(F)(F)F (stereo not shown),"CO release, HPLC",TRIS-sucrose buffer,"pH 7.4, 37 °C",1.25 h
CCCCCOc1ccc(-c2cc(-c3ccc(C(=O)N[C@H]4C[C@@H](O)[C@@H](O)NC(=O)[C@@H]5[C@@H](O)[C@@H](C)CN5C(=O)[C@H]([C@H](O)CC(N)=O)NC(=O)[C@H]([C@H](O)[C@@H](O)c5ccc(O)c(OS(=O)(=O)O)c5)NC(=O)[C@@H]5C[C@@H](O)CN5C(=O)[C@H]([C@@H](C)O)NC4=O)cc3)no2)cc1,,"young infants at least 1000 g, plasma","intravenous infusion, 7 mg/kg/day, day 4, mean, 1 h infusion, repeat dosing",11.4 h
Cc1ncc2n1-c1ccc(Cl)cc1C(c1ccccc1F)=NC2,,"healthy volunteers, plasma","oral, 8 mg, CYP3A probe, geometric mean, with: Echinacea purpurea for 28 days",3.1 h
CC(C)C[C@H](NC(=O)[C@H](CC(C)C)NC(=O)[C@H](CCCCN)NC(=O)[C@H](C)NC(=O)[C@H](CC(C)C)NC(=O)[C@H](CCCCN)NC(=O)[C@H](CCCCN)NC(=O)[C@H](CC(C)C)NC(=O)[C@H](C)NC(=O)[C@H](CCCCN)NC(=O)[C@H](CCCCN)NC(=O)[C@H](Cc1ccc(O)cc1)NC(=O)[C@@H](N)CCCCN)C(N)=O,RP-UPLC,human serum 25%,"200 µM, 37 °C",~2 h
C[N+]1=C(C=CC2=C(OC(=O)CCCc3ccc(N(CCCl)CCCl)cc3)C(=CC=C3N(CCCCCC(=O)O)c4ccccc4C3(C)C)CCC2)C(C)(C)c2ccccc21,ester linker cleavage,phosphate buffer,"0.6 µM, pH 7.5, 37 °C, 2.5% DMSO",~60 h

# For quick reference, copied from above:
SMILES,test,system,conditions,half-life
C[C@H](NC(=O)CNC(=O)[C@H](Cc1c[nH]c2ccccc12)NC(=O)CNC(=O)[C@H](C)NC(=O)[C@H](CO)NC(=O)[C@H](CCCNC(=N)N)NC(=O)[C@H](CO)NC(=O)[C@H](CO)NC(=O)CN)C(=O)N[C@@H](CO)C(=O)N[C@@H](CCCNC(=N)N)C(=O)N[C@@H](CO)C(=O)N[C@@H](CO)C(=O)NCC(N)=O,RP-HPLC and LC-MS,human serum,"50% serum, 37 °C",< 0.5 h
CC[C@H](C)[C@H](NC(=O)CN)C(=O)NCC(=O)N[C@@H](C)C(=O)N[C@H](C(=O)N[C@@H](CC(C)C)C(=O)N[C@@H](CCCCN)C(=O)N[C@H](C(=O)N[C@@H](CC(C)C)C(=O)N[C@H](C(=O)N[C@H](C(=O)NCC(=O)N[C@@H](CC(C)C)C(=O)N1CCC[C@H]1C(=O)N[C@@H](C)C(=O)N[C@@H](CC(C)C)C(=O)N[C@H](C(=O)N[C@@H](CO)C(=O)N[C@@H](Cc1c[nH]c2ccccc12)C(=O)N[C@H](C(=O)N[C@@H](CCCCN)C(=O)N[C@@H](CCCNC(=N)N)C(=O)N[C@@H](CCCCN)C(=O)N[C@@H](CCCNC(=N)N)C(=O)N[C@@H](CCC(N)=O)C(=O)N[C@@H](CCC(N)=O)C(N)=O)[C@@H](C)CC)[C@@H](C)CC)[C@@H](C)O)[C@@H](C)O)C(C)C)C(C)C,HPLC-MS,human serum,37 °C,8 h
N=C(N)NCCC[C@@H](NC(=O)[C@@H](N)Cc1ccccc1)C(=O)N[C@@H](Cc1ccccc1)C(=O)N[C@@H](CCCCN)C(N)=O,,"early Huntington's disease patients, plasma","subcutaneous, 5 mg, day 7",3.13 h
